Published values pooled from the literature.
Compare with care: the assays were run in different laboratories. ± gives the spread as reported.
Cell line: HCT-15

`CC(C)Cc1ccc(C(C)C(=O)[O][Pt]([NH2])([NH2])([Cl])([Cl])[O]C(=O)C(Cl)Cl)cc1` (centres unmarked) gave an IC50 of 0.65 µM (cell growth or viability, MTT; 72 h).
`CC(C)c1cccc(C(C)C)c1-n1ccn(-c2c(C(C)C)cccc2C(C)C)c1=[Se].[Cl][Au]` gave an IC50 of 8.3 µM (cell growth or viability, MTT; 72 h).
`C[C@H](CCC=O)[C@@H]1CC[C@]2(C)C3=C(CC[C@@]12C)[C@@]1(C)CC[C@H](O)C(C)(C)[C@@H]1CC3` has an IC50 of 39 µM (cell growth or viability, SRB).
For `CC(C)c1cccc(C(C)C)c1N1CCN(c2c(C(C)C)cccc2C(C)C)C1=[Se].[Cl][Au]`, the IC50 was 7.8 µM (cell growth or viability, MTT; 72 h).
`CC(=O)[O][Pt]1([O]C(C)=O)[O]C(=O)C(=O)[O]1.NC1CCCCC1N` gave an IC50 of 48.3 ± 3.33 µM (cell growth; 72 h).
With `CN1CCN(C(=O)c2cn(C34CCCC(C)(CCC5C3CC5(C)C)C4)nn2)CC1` (centres unmarked) the IC50 was 17.5 µM (cell growth or viability, CCK-8; 72 h).
`CCCC(CCC)C(=O)[O][Pt]([Cl])([Cl])[O]C(=O)C(CCC)CCC.N.N` gave an IC50 of 0.81 ± 0.12 µM (cell growth; 72 h).
With `[Cl][Au-][c]1n(-c2c(C(c3ccccc3)c3ccccc3)cc(C(c3ccccc3)c3ccccc3)cc2C(c2ccccc2)c2ccccc2)c2c([n+]1-c1c(C(c3ccccc3)c3ccccc3)cc(C(c3ccccc3)c3ccccc3)cc1C(c1ccccc1)c1ccccc1)-c1cccc3cccc-2c13` the IC50 was > 50 µM (cell growth or viability, MTT; 72 h).
`CC1CNCCN1C(=O)c1cn(C23CCCC(C)(CCC4C2CC4(C)C)C3)nn1` (centres unmarked) has an IC50 of 12.3 µM (cell growth or viability, CCK-8; 72 h).
With `CC(C)c1cccc(C(C)C)c1-n1c(Cl)c(Cl)n(-c2c(C(C)C)cccc2C(C)C)c1=[Se].[Cl][Ag]` the IC50 was 2.3 µM (cell growth or viability, MTT; 72 h).
The IC50 of `[Cl][Cu-][c]1n(-c2c(C(c3ccccc3)c3ccccc3)cc(C(c3ccccc3)c3ccccc3)cc2C(c2ccccc2)c2ccccc2)c2c([n+]1-c1c(C(c3ccccc3)c3ccccc3)cc(C(c3ccccc3)c3ccccc3)cc1C(c1ccccc1)c1ccccc1)-c1cccc3cccc-2c13` is reported as > 50 µM (cell growth or viability, MTT; 72 h).
`N.N.O=C(CCCc1ccccc1)[O][Pt]([Cl])([Cl])[O]C(=O)CCCc1ccccc1` has an IC50 of 0.31 ± 0.04 µM (cell growth; 72 h).
With `C=C[CH2][Pd-]([Cl])[Cl].Cc1cc(C)c(-n2c[n+](-c3c(C)cc(C)cc3C)c3c2-c2cccc4cccc-3c24)c(C)c1` the IC50 was 3 µM (cell growth or viability, MTT; 72 h).
The IC50 of `O=C(O)CCCc1ccccc1` is reported as 1210 µM (cell growth or viability; 72 h).
For `CC(C)c1cccc(C(C)C)c1-n1c2c([n+](-c3c(C(C)C)cccc3C(C)C)[c]1[Cu-][Cl])-c1cccc3cccc-2c13`, the IC50 was 5.9 µM (cell growth or viability, MTT; 72 h).
With `CC(=O)Oc1ccccc1C(=O)[O][Pt]([NH2])([NH2])([Cl])([Cl])[O]C(=O)C(Cl)Cl` the IC50 was 1.03 µM (cell growth or viability, MTT; 72 h).
The IC50 of `CNCCNC(=O)c1cn(C23CCCC(C)(CCC4C2CC4(C)C)C3)nn1` (centres unmarked) is reported as 15.6 µM (cell growth or viability, CCK-8; 72 h).
`Cc1c(C)n(-c2c(C(C)C)cccc2C(C)C)c(=[Se])n1-c1c(C(C)C)cccc1C(C)C.[Cl][Ag]` has an IC50 of 2.2 µM (cell growth or viability, MTT; 72 h).
`CCCC(CCC)C(=O)[O][Pt]([NH2])([NH2])([Cl])([Cl])[O]C(=O)c1ccccc1OC(C)=O` gave an IC50 of 4.51 µM (cell growth or viability, MTT; 72 h).
With `CN1CCC(S(=O)(=O)NC23CCCC(C)(CCC4C2CC4(C)C)C3)CC1` (centres unmarked) the IC50 was 7.69 µM (cell growth or viability, CCK-8; 72 h).
For `CCCC(CCC)C(=O)[O][Pt]([NH2])([NH2])([Cl])([Cl])[O]C(=O)C(Cl)Cl`, the IC50 was 3.11 µM (cell growth or viability, MTT; 72 h).
The IC50 of `NC1CCCCC1N.O=C(CCCc1ccccc1)[O][Pt]1([O]C(=O)CCCc2ccccc2)[O]C(=O)C(=O)[O]1` is reported as 12.5 ± 1.13 µM (cell growth; 72 h).
For `CC12CCCC(NS(=O)(=O)C3CCN(Cc4ccccc4)C3)(C1)C1CC(C)(C)C1CC2` (centres unmarked), the IC50 was 16.2 µM (cell growth or viability, CCK-8; 72 h).

A few entries again:
`Cc1c(C)n(-c2c(C(C)C)cccc2C(C)C)c(=[Se])n1-c1c(C(C)C)cccc1C(C)C.[Cl][Ag]` has an IC50 of 2.2 µM (cell growth or viability, MTT; 72 h).
`CCCC(CCC)C(=O)[O][Pt]([NH2])([NH2])([Cl])([Cl])[O]C(=O)c1ccccc1OC(C)=O` gave an IC50 of 4.51 µM (cell growth or viability, MTT; 72 h).
